Assay results collected from several papers.
Compare with care: the assays were run in different laboratories. ± gives the spread as reported.

SMILES	assay	test system	conditions	tissue uptake
CC[C@H](C)[C@H](NC(=O)[C@H](CCCNC(=N)N)NC(=O)[C@H](CCCCN)NC(=O)[C@H](Cc1ccc(O)cc1)NC(=O)[C@H](CC(=O)O)NC(=O)[C@H](C)NC(=O)CNC(=O)CCOCCOCCOCCNC(=O)CN1CCN(CC(=O)O)CCN(CC(=O)O)CCN(CC(=O)O)CC1)C(=O)N[C@H](C(=O)N[C@H](C(=O)N[C@@H](CCCCN)C(=O)N[C@H](C(=O)N[C@@H](CC(N)=O)C(N)=O)C(C)C)C(C)C)[C@@H](C)O [copper-64 labelled]	ex vivo gamma counting	C57BL/6J male mice, B16-F10 tumour, stomach	intravenous, 1.85 MBq, 20 min	1.98 ± 0.146 %ID/g
CCCC[C@H]1C(=O)N(C)[C@@H](CCCC)C(=O)N[C@@H](CCCNC(=O)CN2CCN(CC(=O)O)CCN(CC(=O)O)CCN(CC(=O)O)CC2)C(=O)N[C@H](C(=O)NCC(N)=O)CSCC(=O)N[C@@H](Cc2ccc(O)cc2)C(=O)N(C)[C@@H](C)C(=O)N[C@@H](CC(N)=O)C(=O)N2CCC[C@H]2C(=O)N[C@@H](Cc2c[nH]cn2)C(=O)N[C@@H](CC(C)C)C(=O)N(C)CC(=O)N[C@@H](Cc2c[nH]c3ccccc23)C(=O)N[C@@H](CO)C(=O)N[C@@H](Cc2c[nH]c3ccccc23)C(=O)N1C [gallium-68 labelled]		NOD/SCID mice with CHO-hPD-L1 xenograft, heart	10 min post injection	3.57 ± 0.21 %ID/g
CSCC[C@H](NC(=O)CNC(=O)[C@H](CCCCN)NC(=O)[C@H](CC(C)C)NC(=O)[C@@H]1CCCN1C(=O)[C@H](CO)NC(=O)[C@H](Cc1c[nH]cn1)NC(=O)[C@H](Cc1c[nH]c2ccccc12)NC(=O)[C@H](CCCNC(=N)N)NC(=O)[C@H](CC(C)C)NC(=O)[C@H](CCCNC(=N)N)NC(=O)[C@H](Cc1c[nH]c2ccccc12)NC(=O)[C@H](CS)NC(=O)CCCCCNC(=O)CN1CCN(CC(=O)O)CCN(CC(=O)O)CCN(CC(=O)O)CC1)C(=O)O [copper-64 labelled]	ex vivo biodistribution	male C57BL/6J mice, stomach	intravenous, 1.85 MBq, 2 h, B16-F10 tumour-bearing	6.38 %ID/g
CC(C)C[C@@H](NC(=O)[C@@H](CCCNC(=N)N)NC(=O)[C@@H](Cc1c[nH]cn1)NC(=O)[C@@H](Cc1c[nH]c2ccccc12)NC(=O)[C@@H](Cc1c[nH]cn1)NC(=O)[C@@H](Cc1ccccc1)NC(=O)[C@H](NC(=O)[C@@H](Cc1ccc(O)cc1)NC(=O)CNC(=O)CNC(=O)CCOCCOCCOCCNC(=O)CN1CCN(CC(=O)O)CCN(CC(=O)O)CC1)[C@H](C)O)C(=O)N[C@H](CC(N)=O)C(=O)N1CCC[C@@H]1C(=O)O [gallium-68 labelled]		C57BL/6 mice, male, heart	intravenous, 1.85 MBq, 60 min, with: blocking antibody	1.06 ± 0.46 %ID/g
CC[C@H](C)[C@H](NC(=O)[C@H](CCCNC(=N)N)NC(=O)[C@H](CCCCN)NC(=O)[C@H](Cc1ccc(O)cc1)NC(=O)[C@H](CC(=O)O)NC(=O)[C@H](C)NC(=O)CNC(=O)CCOCCOCCOCCNC(=O)CN1CCN(CC(=O)O)CCN(CC(=O)O)CCN(CC(=O)O)CC1)C(=O)N[C@H](C(=O)N[C@@H](CC(C)C)C(=O)N[C@@H](CCCCN)C(=O)N[C@H](C(=O)N[C@@H](CC(N)=O)C(N)=O)C(C)C)[C@@H](C)O [copper-64 labelled]	ex vivo gamma counting	C57BL/6J male mice, B16-F10 tumour, lung	intravenous, 1.85 MBq, 5 min	3.25 ± 0.101 %ID/g
CC[C@H](C)[C@H](NC(=O)[C@H](CCCCN)NC(=O)CNC(=O)[C@H](CC(C)C)NC(=O)[C@H](Cc1ccccc1)NC(=O)[C@H](CCCCN)NC(=O)[C@H](CO)NC(=O)[C@H](Cc1ccccc1)NC(=O)[C@H](Cc1c[nH]c2ccccc12)NC(=O)[C@H](CCC(N)=O)NC(=O)[C@@H](NC(=O)[C@H](Cc1ccccc1)NC(=O)CCCCCNC(=O)CN1CCN(CC(=O)O)CCN(CC(=O)O)CCN(CC(=O)O)CC1)C(C)C)C(=O)N[C@@H](CCC(=O)O)C(=O)N1CCC[C@H]1C(=O)N[C@@H](CC(=O)O)C(=O)N[C@H](C(=O)N[C@@H](CO)C(=O)N[C@@H](CCC(N)=O)C(=O)N[C@H](C(=O)N[C@@H](CCC(N)=O)C(=O)N[C@@H](CC(=O)O)C(=O)N1CCC[C@H]1C(=O)N[C@@H](CC(N)=O)C(=O)N[C@@H](CC(=O)O)C(=O)N[C@@H](CCC(N)=O)C(=O)N[C@@H](Cc1ccc(O)cc1)C(=O)N[C@@H](CCC(=O)O)C(=O)N1CCC[C@H]1C(=O)N[C@@H](Cc1ccccc1)C(=O)O)C(C)C)C(C)C [copper-64 labelled]		C57BL/6 mice, male, naive, brown fat	1 h	2.2 ± 0.2 %ID/g
C[C@H](O)[C@@H](NC(=O)[C@H]1CCCN1C(=O)[C@@H](CCCCN)NC(=O)[C@@H](CO)NC(=O)[C@@H](Cc1ccc(O)cc1)NC(=O)[C@@H](CC(N)=O)NC(=O)CCOCCOCCOCCNC(=O)CN1CCN(CC(=O)O)CCN(CC(=O)O)CCN(CC(=O)O)CC1)C(=O)N[C@H](CC(=O)O)C(=O)N[C@H](CCCNC(=N)N)C(=O)N[C@H](CCC(N)=O)C(=O)N[C@H](Cc1ccc(O)cc1)C(=O)N[C@H](Cc1c[nH]cn1)C(=O)N[C@H](Cc1ccccc1)C(N)=O [copper-64 labelled]		C57BL/6J mice, stomach	intravenous, 1.85 MBq, 1.333 h, radiolabelled	0.62 ± 0.24 %ID/g
CC[C@H](C)[C@H](NC(=O)[C@@H](Cc1c[nH]c2ccccc12)NC(=O)[C@@H]1CCCN1C(=O)[C@H](CCCCN)NC(=O)[C@H](CCCCN)NC(=O)CCNC(=O)CCNC(=O)CN1CCN(CC(=O)O)CCN(CC(=O)O)CCN(CC(=O)O)CC1)C(=O)N[C@@H](C[Si](C)(C)C)C(=O)O [gallium-68 labelled]	ex vivo biodistribution	nude mice, HT-29 xenograft, liver	90 min, with: levocabastine 0.5 µmol	0.37 ± 0.11 %ID/g

Some of these lines once more:
SMILES	assay	test system	conditions	tissue uptake
CSCC[C@H](NC(=O)CNC(=O)[C@H](CCCCN)NC(=O)[C@H](CC(C)C)NC(=O)[C@@H]1CCCN1C(=O)[C@H](CO)NC(=O)[C@H](Cc1c[nH]cn1)NC(=O)[C@H](Cc1c[nH]c2ccccc12)NC(=O)[C@H](CCCNC(=N)N)NC(=O)[C@H](CC(C)C)NC(=O)[C@H](CCCNC(=N)N)NC(=O)[C@H](Cc1c[nH]c2ccccc12)NC(=O)[C@H](CS)NC(=O)CCCCCNC(=O)CN1CCN(CC(=O)O)CCN(CC(=O)O)CCN(CC(=O)O)CC1)C(=O)O [copper-64 labelled]	ex vivo biodistribution	male C57BL/6J mice, stomach	intravenous, 1.85 MBq, 2 h, B16-F10 tumour-bearing	6.38 %ID/g
